Results of several laboratories.
Compare with care: the assays were run in different laboratories. Values joined by “and” are separate records of one study, mostly repeats; a detail may differ. ± gives the spread as reported.
Genome polyprotein NS3 helicase domain: Genome polyprotein, NS3 helicase domain (Hepatitis C virus genotype 1b, UniProt Q9WMX2)
WD repeat-containing protein 91 WD40 domain, residues 392–747: WD repeat-containing protein 91, WD40 domain, residues 392–747 (Homo sapiens, UniProt A4D1P6)
Sequence of UniProt A4D1P6 (whole entry, looked up): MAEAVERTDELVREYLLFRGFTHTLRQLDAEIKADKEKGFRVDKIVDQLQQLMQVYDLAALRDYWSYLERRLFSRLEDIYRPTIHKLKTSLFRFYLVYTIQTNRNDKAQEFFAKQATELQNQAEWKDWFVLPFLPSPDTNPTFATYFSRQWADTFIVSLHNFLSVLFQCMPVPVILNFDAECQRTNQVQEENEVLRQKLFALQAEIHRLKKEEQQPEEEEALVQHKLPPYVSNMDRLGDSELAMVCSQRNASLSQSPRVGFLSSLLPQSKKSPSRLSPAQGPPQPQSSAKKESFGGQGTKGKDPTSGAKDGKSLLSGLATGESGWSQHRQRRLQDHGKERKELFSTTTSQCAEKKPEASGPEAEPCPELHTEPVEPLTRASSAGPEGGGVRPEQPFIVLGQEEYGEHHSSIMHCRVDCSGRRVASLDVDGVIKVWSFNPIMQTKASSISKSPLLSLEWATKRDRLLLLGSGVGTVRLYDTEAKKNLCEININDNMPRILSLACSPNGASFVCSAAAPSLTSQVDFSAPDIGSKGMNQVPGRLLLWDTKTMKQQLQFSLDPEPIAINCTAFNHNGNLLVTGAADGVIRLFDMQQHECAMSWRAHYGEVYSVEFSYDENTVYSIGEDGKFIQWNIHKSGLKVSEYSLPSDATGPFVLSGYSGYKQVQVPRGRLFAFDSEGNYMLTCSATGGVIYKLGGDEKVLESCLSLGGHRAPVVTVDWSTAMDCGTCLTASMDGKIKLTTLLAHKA
ESR1: Estrogen receptor (ESR1, Homo sapiens, UniProt P03372)
Sequence of UniProt P51575 (whole entry, unmodified, looked up): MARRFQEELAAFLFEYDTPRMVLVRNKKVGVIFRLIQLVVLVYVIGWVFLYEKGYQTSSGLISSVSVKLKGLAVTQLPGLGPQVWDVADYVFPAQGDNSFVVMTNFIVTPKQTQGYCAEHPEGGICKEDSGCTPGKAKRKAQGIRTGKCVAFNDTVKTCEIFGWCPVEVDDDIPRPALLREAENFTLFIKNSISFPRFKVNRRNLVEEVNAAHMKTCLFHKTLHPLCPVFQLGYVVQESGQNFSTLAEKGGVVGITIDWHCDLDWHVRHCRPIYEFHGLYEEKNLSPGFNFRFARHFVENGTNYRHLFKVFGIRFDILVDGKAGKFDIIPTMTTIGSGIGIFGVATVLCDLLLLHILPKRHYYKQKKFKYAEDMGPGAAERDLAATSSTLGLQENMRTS
Sequence of UniProt P03372 (whole entry, looked up): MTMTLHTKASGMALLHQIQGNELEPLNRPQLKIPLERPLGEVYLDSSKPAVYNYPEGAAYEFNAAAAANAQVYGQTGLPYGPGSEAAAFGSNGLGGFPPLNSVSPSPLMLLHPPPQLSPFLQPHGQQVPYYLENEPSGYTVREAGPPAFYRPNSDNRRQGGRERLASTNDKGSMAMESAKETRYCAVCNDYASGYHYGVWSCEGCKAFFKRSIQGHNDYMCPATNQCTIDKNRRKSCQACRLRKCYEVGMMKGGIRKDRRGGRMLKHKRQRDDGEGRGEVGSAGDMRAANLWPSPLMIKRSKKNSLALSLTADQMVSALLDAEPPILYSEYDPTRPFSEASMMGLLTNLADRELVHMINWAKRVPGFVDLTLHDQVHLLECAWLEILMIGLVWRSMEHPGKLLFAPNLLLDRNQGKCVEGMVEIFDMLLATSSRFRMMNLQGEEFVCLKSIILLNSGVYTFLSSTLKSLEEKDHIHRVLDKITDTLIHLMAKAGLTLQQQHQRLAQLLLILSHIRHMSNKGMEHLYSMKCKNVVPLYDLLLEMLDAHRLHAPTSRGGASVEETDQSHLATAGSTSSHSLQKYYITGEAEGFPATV
Sequence of UniProt P31941 (whole entry, looked up): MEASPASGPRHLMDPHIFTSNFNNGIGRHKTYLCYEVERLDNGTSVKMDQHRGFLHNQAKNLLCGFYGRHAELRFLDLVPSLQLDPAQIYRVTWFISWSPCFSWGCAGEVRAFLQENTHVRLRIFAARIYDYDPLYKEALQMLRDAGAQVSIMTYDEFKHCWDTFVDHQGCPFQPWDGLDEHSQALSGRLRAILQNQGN

| SMILES | target | test | test system | conditions | scale | endpoint | result |
| --- | --- | --- | --- | --- | --- | --- | --- |
| COc1cc(/C=C/c2cc(/C=C/c3ccc(O)c(OC)c3)n(-c3ccc(Cl)cc3Cl)n2)ccc1O | haemin | binding, isothermal titration calorimetry | – | pH 7.4, 37 °C | – | ΔH | -23.69 ± 0.196 kcal/mol |
| Cc1ccccc1C1CC(=O)c2c(C)nc(N)nc2C1 (stereo not shown) | WD repeat-containing protein 91 (Homo sapiens, UniProt A4D1P6) | binding, affinity selection mass spectrometry | – | – | reference: other proteins in batch | log fold enrichment | -0.0483 |
| O=C(NC1CCN(c2ncnc3c2nc(-c2ccccc2Cl)n3-c2ccc(Cl)cc2)CC1)c1ccccc1F | CNR1 (Homo sapiens, UniProt P21554) | antagonist, FLIPR calcium mobilisation | CHO-K1 expressing CNR1 and Gαq16 | added: CP55940 | – | Ke | ~0.6 nM |
| CCOCc1nc(O)c(-c2nnc(Cc3ccc(Cl)cn3)o2)c(O)c1-c1c(OC)cccc1OC | Apelin receptor (APLNR, Homo sapiens, UniProt P35414) | GαoB activation, agonist, BRET biosensor | HEK293 | – | – | Emax | 110 ± 5% |
| COc1ccc(CNC(=O)CCl)cc1OC | 14-3-3 protein sigma, with ERα phosphopeptide (SFN, Homo sapiens, UniProt P31947) | binding, fluorescence polarization | – | covalent ligand screen, added: phosphorylated ERalpha peptide | reference: control | FP signal | 88.4% |
| O=C(O)CCCCC1CCSS1 (racemic) | Genome polyprotein NS3 helicase domain | DNA binding, inhibitor | hepatitis C virus | 100 µM, added: Cy5-dT15 DNA | – | inhibition | 0% |
| O=C1Nc2ccc(-c3ccc4cc(O)ccc4c3)cc2/C1=C\c1ccc(N2CCOCC2)cc1 | FGFR2 (Homo sapiens, UniProt P21802) | calculated from IC50 | – | – | – | binding free energy | -11.2 kcal/mol |
| CC(C)[C@H](NC(=O)c1cc(-c2cnn3cc(-c4ccc(OCCN5CCCCC5)cc4)cnc23)cs1)C(F)(F)F | WNK1 (Homo sapiens, UniProt Q9H4A3) | radiometric kinase | – | 15 nM | reference: WNK1 over ULK1 | relative inhibition | 0.0455 |
| O=c1nc(SCc2cc(F)cc(C(F)(F)F)c2)nc(SCc2ccc3sccc3c2)[nH]1 | TOP2A (Homo sapiens, UniProt P11388) | DNA relaxation | – | 7.8 µM | – | mean relaxed DNA | 98.7% |
| N#CC1CCN(C(=O)c2ccc(CCc3c[nH]c4nc(N)[nH]c(=O)c34)cc2)CC1 | WD repeat-containing protein 91 WD40 domain, residues 392–747 | binding, SPR single-concentration screen | – | 45 µM | – | SPR response | -3.9 RU and 2.3 RU |
| CC[C@H](C)[C@H](NC(=O)[C@H](CCCCN)NC(=O)CNC(=O)[C@@H](NC(=O)[C@@H](NC(=O)[C@H](CCSC)NC(=O)[C@H](Cc1c[nH]cn1)NC(=O)CN)[C@@H](C)O)C(C)C)C(=O)N[C@@H](Cc1ccc(O)cc1)C(=O)N[C@@H](C)C(=O)N[C@@H](C)C(=O)N[C@@H](CCSC)C(=O)N[C@@H](CCSC)C(=O)N[C@H](C(=O)N[C@@H](CCSC)C(=O)N[C@@H](CCC(=O)O)C(=O)N[C@@H](C)C(=O)N[C@@H](Cc1ccc(O)cc1)C(=O)N[C@@H](CCCNC(=N)N)C(=O)N[C@@H](CCC(N)=O)C(=O)N[C@@H](CO)C(=O)N[C@@H](CCCCN)C(=O)N[C@@H](C)C(=O)N[C@@H](CCCCN)C(=O)N[C@@H](CCCCN)C(=O)N[C@@H](CC(C)C)C(=O)N[C@@H](CCC(N)=O)C(=O)N[C@@H](C)C(=O)N[C@@H](CCSC)C(=O)N[C@@H](CCCNC(=N)N)C(=O)O)[C@@H](C)CC | Calmodulin-1, Ca2+-bound N-lobe (CALM1, Homo sapiens, UniProt P0DP23) | binding, isothermal titration calorimetry | – | N-lobe, CaV2.1 IQ domain, unit not given, added: Ca2+ | reference: wild-type IQ domain | ΔΔG | -1.56 |
| NC/C(=C\F)COc1cccc(Cn2c(=S)[nH]c(=O)c3[nH]cnc32)c1 | Myeloperoxidase (MPO, Homo sapiens, UniProt P05164) | H2O2 consumption, inhibitor, H2O2 electrode | – | 0.028 µM, 0.1 s | – | H2O2 concentration | -0.803 µM |
| COc1cc(O)c2c(=O)cc(-c3ccc(O)cc3)oc2c1 | ESR1 | array formation | PRL-HeLa | – | reference: EC50 ERβ over EC50 ERα | selectivity ratio | 0.745 |
| N[C@@H](Cc1ccccc1)C(=O)O | N-alpha-acetyltransferase 80 (NAA80, Homo sapiens, UniProt Q93015) | substrate, DTNB | – | 2 mM, 30 min, 37 °C, added: acetyl-CoA 500 µM | – | product formation | -1.01 µM |
| CC(C)c1ccc(C(=O)NCCOc2ccc(C(=O)N3CCC(C#N)CC3)cc2)cc1 | WD repeat-containing protein 91 WD40 domain, residues 392–747 | binding, SPR single-concentration screen | – | 45 µM | – | SPR response | 0.8 RU and -0.5 RU |
| COc1ccc2c(c1)c(CC(=O)O)c(C)n2Cc1ccc(Cl)cc1 | Genome polyprotein NS3 helicase domain | DNA binding, inhibitor | hepatitis C virus | 100 µM, added: Cy5-dT15 DNA | – | inhibition | 0% |
| N#CC1CCN(C(=O)c2ccc(OC3CCC3)cc2)CC1 | WD repeat-containing protein 91 WD40 domain, residues 392–747 | SPR | – | 45 µM | – | binding | -31% and -6% |
| CC(C)NCC(O)COc1cccc2ccccc12 (stereo not shown) | Glutamate receptor 2 (Homo sapiens, UniProt P42262) | ion current, positive allosteric modulator, SyncroPatch patch clamp | HEK293 | 10 µM | – | potentiation | 99% |
| Cl.Fc1ccc(CN(C2=NCCN2)c2c(Cl)cccc2Cl)cc1 | Genome polyprotein NS3 helicase domain | DNA binding, inhibitor | hepatitis C virus | 100 µM, added: Cy5-dT15 DNA | – | inhibition | 1% |
| O=C(COP(=O)(O)O)[C@@H](O)[C@H](O)[C@H](O)COP(=O)(O)O | RAN (Homo sapiens, UniProt P62826) | thermal proteome profiling | HepG2 cell lysate | concentration not given, 57 over 37 °C | reference: compound over control | thermal stability ratio | 0.583 and 0.5 and 0.52 |
| Cc1ccc(O)c(N=Nc2ccccc2)n1 | Genome polyprotein NS3 helicase domain | DNA binding, inhibitor | hepatitis C virus | 100 µM, added: Cy5-dT15 DNA | – | inhibition | 1% |
| Nc1ncnc2c1ncn2[C@@H]1O[C@H](COP(=O)(O)CP(=O)(O)OP(=O)(O)O)[C@@H](O)[C@H]1O | P2X purinoceptor 1 (P2RX1, Homo sapiens, UniProt P51575, D170A) | calcium influx | – | 100 µM | reference: ionomycin response | calcium influx | 91.8% and 99.1% and 92.7% |
| COc1ccc(C(=O)Nc2ccc(N3C4CCC3CN(c3ccccn3)C4)cc2)cc1 | GPCR panel | off-target binding panel | – | concentration not given | – | binding | no binding |
| Nc1ncnc2c1ncn2[C@@H]1O[C@H](C[C@@H](N)CC[C@H](N)C(=O)O)[C@@H](O)[C@H]1O | O-methyltransferase (Sorghum bicolor, UniProt A0A1B6PFV1) | ITC | – | concentration not given, added: RSV+ | – | binding stoichiometry | 1.12 ± 0.023 |
| CCC1(O)CCCN(C(=O)c2ccc(-c3ccc(F)c(NC(=O)CCl)c3)cc2)C1 (stereo not shown) | DNA dC->dU-editing enzyme APOBEC-3A (Homo sapiens, UniProt P31941) | covalent adduct, intact protein MS | – | 3 h, 1-fold, 25 µM | – | unmodified protein | 30% and 37% |
| CC(C)=CCc1cc(-c2coc3cc(O)ccc3c2=O)ccc1O | ESR1 | array formation | PRL-HeLa | – | reference: EC50 ERβ over EC50 ERα | selectivity ratio | 97.5 |
| N=C(N)N/N=C/c1c(Cl)cccc1Cl | Genome polyprotein NS3 helicase domain | DNA binding, inhibitor | hepatitis C virus | 100 µM, added: Cy5-dT15 DNA | – | inhibition | 0% |
| CC[C@H](C)[C@H](NC(=O)[C@H](CCCCN)NC(=O)CNC(=O)[C@@H](NC(=O)[C@@H](NC(=O)[C@H](CCSC)NC(=O)[C@H](Cc1c[nH]cn1)NC(=O)CN)[C@@H](C)O)C(C)C)C(=O)N[C@@H](Cc1ccc(O)cc1)C(=O)N[C@@H](C)C(=O)N[C@@H](C)C(=O)N[C@@H](CCSC)C(=O)N[C@@H](CCSC)C(=O)N[C@H](C(=O)N[C@@H](CCSC)C(=O)N[C@@H](CCC(=O)O)C(=O)N[C@@H](Cc1ccc(O)cc1)C(=O)N[C@@H](Cc1ccc(O)cc1)C(=O)N[C@@H](CCCNC(=N)N)C(=O)N[C@@H](CCC(N)=O)C(=O)N[C@@H](CO)C(=O)N[C@@H](CCCCN)C(=O)N[C@@H](C)C(=O)N[C@@H](CCCCN)C(=O)N[C@@H](CCCCN)C(=O)N[C@@H](CC(C)C)C(=O)N[C@@H](CCC(N)=O)C(=O)N[C@@H](C)C(=O)N[C@@H](CCSC)C(=O)N[C@@H](CCCNC(=N)N)C(=O)O)[C@@H](C)CC | Calmodulin-1, Ca2+-bound C-lobe (CALM1, Homo sapiens, UniProt P0DP23) | binding, isothermal titration calorimetry | – | pH 7.4, 15 °C, C-lobe, CaV2.1 IQ domain, added: Ca2+ | – | ΔH | -4.31 ± 0.35 kcal/mol |
